Measured values collected from several papers.
Parts stem from different laboratories: compare values within a part only.
UniProt Q9H422, sequence (whole entry, looked up): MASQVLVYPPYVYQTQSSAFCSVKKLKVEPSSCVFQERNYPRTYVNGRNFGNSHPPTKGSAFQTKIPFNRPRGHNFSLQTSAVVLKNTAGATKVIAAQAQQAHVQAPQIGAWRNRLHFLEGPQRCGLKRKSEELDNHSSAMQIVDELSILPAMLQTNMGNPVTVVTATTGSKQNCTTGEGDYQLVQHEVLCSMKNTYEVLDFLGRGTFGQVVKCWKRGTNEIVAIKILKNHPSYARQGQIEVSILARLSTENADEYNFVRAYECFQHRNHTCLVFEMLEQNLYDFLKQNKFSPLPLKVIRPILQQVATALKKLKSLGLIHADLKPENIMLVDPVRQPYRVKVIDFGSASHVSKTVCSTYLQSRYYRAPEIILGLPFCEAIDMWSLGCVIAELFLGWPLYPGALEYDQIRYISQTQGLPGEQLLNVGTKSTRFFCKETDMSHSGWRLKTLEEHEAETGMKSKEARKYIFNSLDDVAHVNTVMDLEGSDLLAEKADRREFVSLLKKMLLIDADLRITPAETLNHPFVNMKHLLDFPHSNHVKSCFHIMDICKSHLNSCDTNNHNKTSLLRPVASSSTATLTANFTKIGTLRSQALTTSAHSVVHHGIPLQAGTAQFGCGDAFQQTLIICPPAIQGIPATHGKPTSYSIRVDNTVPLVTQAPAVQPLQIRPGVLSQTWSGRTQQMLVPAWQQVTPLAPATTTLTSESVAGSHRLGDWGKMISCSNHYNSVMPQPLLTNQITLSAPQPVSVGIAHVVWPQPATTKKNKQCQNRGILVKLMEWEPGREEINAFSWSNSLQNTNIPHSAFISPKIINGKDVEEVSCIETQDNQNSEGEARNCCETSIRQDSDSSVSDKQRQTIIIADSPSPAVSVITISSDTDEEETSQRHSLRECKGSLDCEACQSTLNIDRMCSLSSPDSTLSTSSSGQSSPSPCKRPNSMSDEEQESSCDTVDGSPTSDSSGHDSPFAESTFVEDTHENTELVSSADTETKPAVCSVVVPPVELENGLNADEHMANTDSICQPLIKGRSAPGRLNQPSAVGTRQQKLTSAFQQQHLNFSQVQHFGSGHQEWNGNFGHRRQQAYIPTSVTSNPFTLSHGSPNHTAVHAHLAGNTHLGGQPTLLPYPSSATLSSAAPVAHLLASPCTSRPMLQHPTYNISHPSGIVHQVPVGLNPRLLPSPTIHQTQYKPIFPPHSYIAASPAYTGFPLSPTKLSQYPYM
UniProt Q9UQ88, sequence (whole entry, looked up): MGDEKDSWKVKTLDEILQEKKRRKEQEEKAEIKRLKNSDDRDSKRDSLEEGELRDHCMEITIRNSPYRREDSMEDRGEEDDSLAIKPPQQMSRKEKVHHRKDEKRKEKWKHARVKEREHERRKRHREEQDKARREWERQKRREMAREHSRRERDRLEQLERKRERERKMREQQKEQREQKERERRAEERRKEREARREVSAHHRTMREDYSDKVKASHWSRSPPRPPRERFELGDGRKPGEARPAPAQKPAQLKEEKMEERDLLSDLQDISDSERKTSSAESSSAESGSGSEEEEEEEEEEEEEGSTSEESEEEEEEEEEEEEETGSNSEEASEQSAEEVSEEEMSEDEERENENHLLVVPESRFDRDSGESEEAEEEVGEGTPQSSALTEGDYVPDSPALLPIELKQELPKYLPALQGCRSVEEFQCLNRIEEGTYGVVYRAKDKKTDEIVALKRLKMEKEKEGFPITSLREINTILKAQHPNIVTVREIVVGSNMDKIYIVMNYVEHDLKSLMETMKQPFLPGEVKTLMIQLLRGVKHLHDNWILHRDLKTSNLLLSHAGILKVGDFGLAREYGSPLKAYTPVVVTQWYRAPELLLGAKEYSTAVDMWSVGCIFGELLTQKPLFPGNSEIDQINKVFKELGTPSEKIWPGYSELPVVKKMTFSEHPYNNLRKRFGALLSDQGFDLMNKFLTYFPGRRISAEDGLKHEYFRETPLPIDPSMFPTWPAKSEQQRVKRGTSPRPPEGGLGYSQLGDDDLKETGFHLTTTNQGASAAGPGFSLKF
UniProt Q96RR4, sequence (whole entry, looked up): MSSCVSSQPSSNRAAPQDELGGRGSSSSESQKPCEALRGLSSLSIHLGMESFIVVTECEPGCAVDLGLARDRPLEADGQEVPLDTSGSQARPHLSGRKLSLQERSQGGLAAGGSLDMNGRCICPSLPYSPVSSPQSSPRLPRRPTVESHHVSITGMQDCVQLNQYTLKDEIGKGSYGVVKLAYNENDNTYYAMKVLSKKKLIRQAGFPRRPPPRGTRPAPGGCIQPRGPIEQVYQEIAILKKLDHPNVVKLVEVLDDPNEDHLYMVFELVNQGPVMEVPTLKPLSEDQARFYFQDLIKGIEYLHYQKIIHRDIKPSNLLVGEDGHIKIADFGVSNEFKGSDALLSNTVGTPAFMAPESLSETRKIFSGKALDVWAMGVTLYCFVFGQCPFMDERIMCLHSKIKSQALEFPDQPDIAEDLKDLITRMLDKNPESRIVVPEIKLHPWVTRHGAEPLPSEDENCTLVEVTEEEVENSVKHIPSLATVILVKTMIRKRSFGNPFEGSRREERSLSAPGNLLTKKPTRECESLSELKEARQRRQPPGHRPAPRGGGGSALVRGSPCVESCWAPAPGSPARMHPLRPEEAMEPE
UniProt O94921, sequence (whole entry, looked up): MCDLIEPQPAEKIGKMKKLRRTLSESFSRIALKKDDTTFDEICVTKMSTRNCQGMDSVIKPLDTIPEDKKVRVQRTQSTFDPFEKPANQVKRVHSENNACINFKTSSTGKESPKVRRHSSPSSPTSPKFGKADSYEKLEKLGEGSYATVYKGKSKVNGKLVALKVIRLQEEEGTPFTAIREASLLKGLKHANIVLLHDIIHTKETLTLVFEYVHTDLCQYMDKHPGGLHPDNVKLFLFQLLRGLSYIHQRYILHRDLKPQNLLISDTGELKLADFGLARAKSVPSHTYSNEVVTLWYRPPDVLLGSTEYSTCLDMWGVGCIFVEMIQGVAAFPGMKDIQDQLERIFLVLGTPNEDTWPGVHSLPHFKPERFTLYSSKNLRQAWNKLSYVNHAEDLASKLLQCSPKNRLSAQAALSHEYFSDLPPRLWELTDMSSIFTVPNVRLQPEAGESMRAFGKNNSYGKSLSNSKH
UniProt O75116, sequence (whole entry, looked up): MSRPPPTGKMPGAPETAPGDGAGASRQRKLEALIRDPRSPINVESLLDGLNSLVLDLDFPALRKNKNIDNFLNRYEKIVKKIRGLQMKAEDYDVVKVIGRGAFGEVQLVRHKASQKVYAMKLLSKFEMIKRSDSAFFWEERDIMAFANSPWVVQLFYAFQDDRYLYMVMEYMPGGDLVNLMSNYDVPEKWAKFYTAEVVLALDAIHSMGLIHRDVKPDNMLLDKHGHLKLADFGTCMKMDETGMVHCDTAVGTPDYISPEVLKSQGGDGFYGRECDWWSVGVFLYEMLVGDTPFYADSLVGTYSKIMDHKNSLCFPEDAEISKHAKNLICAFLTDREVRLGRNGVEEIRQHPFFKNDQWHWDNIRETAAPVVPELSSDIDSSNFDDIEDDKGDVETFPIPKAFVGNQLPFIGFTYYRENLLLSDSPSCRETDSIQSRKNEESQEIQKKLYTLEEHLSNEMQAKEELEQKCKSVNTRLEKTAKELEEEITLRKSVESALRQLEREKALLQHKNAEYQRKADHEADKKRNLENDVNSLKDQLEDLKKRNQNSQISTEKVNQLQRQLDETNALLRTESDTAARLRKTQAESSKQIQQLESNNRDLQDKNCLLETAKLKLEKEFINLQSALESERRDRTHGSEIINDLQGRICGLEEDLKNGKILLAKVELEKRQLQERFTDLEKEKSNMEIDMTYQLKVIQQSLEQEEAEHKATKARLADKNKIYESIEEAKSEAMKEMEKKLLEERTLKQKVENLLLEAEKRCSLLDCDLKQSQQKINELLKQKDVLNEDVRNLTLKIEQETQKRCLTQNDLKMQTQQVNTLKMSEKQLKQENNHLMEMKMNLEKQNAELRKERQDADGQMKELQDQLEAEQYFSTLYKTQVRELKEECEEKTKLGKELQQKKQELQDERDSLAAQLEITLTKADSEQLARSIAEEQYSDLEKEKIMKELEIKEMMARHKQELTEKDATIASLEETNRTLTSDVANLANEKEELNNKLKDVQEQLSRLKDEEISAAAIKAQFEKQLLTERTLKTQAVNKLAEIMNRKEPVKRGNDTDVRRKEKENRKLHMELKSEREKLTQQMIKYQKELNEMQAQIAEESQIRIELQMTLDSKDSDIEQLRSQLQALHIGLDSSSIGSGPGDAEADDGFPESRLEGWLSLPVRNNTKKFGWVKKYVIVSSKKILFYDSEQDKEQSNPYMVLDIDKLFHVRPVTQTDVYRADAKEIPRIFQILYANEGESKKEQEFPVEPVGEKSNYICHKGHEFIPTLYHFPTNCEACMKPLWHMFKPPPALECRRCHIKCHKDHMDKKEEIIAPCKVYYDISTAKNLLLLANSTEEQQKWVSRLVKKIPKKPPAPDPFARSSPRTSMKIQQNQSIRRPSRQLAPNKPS

Block 1
Target: Homeodomain-interacting protein kinase 4 (HIPK4, Homo sapiens, UniProt Q8NE63)
UniProt Q8NE63, sequence (whole entry, looked up): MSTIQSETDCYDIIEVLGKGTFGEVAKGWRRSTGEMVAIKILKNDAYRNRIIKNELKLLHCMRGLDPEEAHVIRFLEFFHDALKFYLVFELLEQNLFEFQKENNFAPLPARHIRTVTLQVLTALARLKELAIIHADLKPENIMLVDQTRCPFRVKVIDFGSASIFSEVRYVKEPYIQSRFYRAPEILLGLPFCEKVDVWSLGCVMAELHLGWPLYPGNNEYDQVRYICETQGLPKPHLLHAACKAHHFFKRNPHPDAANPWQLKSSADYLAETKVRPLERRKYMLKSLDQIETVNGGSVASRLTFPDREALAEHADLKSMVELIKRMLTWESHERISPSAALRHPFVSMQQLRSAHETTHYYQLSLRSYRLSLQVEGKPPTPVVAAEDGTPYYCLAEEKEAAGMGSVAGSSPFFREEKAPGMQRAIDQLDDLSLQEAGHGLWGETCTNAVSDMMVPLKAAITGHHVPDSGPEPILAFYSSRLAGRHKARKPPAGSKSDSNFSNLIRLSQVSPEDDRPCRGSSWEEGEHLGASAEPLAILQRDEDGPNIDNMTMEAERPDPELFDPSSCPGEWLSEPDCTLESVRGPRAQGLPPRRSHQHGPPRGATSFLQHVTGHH
Observed: enzyme activity
Mode: inhibitor
Tested at: 0.5 µM
Reference: control
SMILES	remaining activity [%]
COc1ccc(CNC(=O)Nc2ncc([N+](=O)[O-])s2)cc1	103
C#Cc1cccc(Nc2ncnc3cc(OCCOC)c(OCCOC)cc23)c1	102
Nc1[nH]nc2nc3ccccc3nc12	95.8
Cc1ccc(Nc2nccc(N(C)c3ccc4c(C)n(C)nc4c3)n2)cc1S(N)(=O)=O	109
COc1cc2nccc(Oc3ccc(NC(=S)NC(=O)c4ccccc4C)cc3)c2cc1OC	86
CN(C)c1ccc(C=C2C(=O)Nc3ccccc32)cc1	98.3
O=S(=O)(c1cccc2cnccc12)N1CCCNCC1	103
COc1ccc(C(=O)Nc2sc3c(c2C(N)=O)CCCC3)cc1OC	103
O=C1NC(=O)C(c2cn(CCCO)c3ncccc23)=C1c1cnccn1	104
CCOC(=O)c1c(C)[nH]c(/C=C2\C(=O)Nc3ccccc32)c1C	90.2
CO[C@H]1C[C@@H]2CC[C@@H](C)[C@@](O)(O2)C(=O)C(=O)N2CCCC[C@H]2C(=O)O[C@H]([C@H](C)C[C@@H]2CC[C@@H](O)[C@H](OC)C2)CC(=O)[C@H](C)/C=C(\C)[C@@H](O)[C@@H](OC)C(=O)[C@H](C)C[C@H](C)/C=C/C=C/C=C/1C	92.9

Block 2
Host: mouse
Medium: microsomes or S9
Tested at: 2 µM
Time: 0.5 h
SMILES	remaining compound [%]
c1ccc2c(c1)oc1c(-c3cn(C[C@H]4CCCN4)nn3)cccc12	44
CC(Nc1ccn(CCS(C)(=O)=O)n1)c1nc(C(C)(C)C)no1 (centres unmarked)	62.5
Cn1nc(CNC(=O)Cn2nc(C(F)(F)F)c3c2CCC3)c(Cl)c1Cl	1.56
CCN(CC)CCCNc1sc(S(C)(=O)=O)nc1S(=O)(=O)c1ccc(C)cc1	1.45
O=C(COC(=O)c1ccc(Br)o1)c1ccc(Cl)c(Cl)c1	79.1

Block 3
Organism: Sarcocystis neurona
Observed: parasite growth
Tested at: 10 µM
Time: 96 h
Notes: first screen
Reference: untreated
SMILES	log2 fold change
c1ccc(-c2ccc(C(c3ccccc3)n3ccnc3)cc2)cc1 (centres unmarked)	-1.68
CCN1CCCC1CNC(=O)c1cc(S(=O)(=O)CC)c(N)cc1OC (centres unmarked)	-0.0427
COC(=O)C1=C(C)NC(C)=C(C(=O)OC(C)C)C1c1cccc2nonc12 (centres unmarked)	0.21
CC/C(=C(\c1ccccc1)c1ccc(OCCN(C)C)cc1)c1ccccc1	-0.35

Block 4
SMILES: Cc1c(NC(=O)c2cc(C(N)=O)nc3cc(F)ccc23)c(C(F)(F)F)nn1Cc1ccc(C#N)cc1
Method: competition with immobilised ligand
Tested at: 1 µM
target	assay	remaining binding
ROCK2 (Homo sapiens, UniProt O75116)	cell-free assay	99%
CDK11A (Homo sapiens, UniProt Q9UQ88)	binding	100%
EGFR (Homo sapiens, UniProt P00533, del747-752/P753S)	cell-free assay	61%
CAMKK2 (Homo sapiens, UniProt Q96RR4)	cell-free assay	92%
HIPK3 (Homo sapiens, UniProt Q9H422)	cell-free assay	85%
CDK14 (Homo sapiens, UniProt O94921)	cell-free assay	100%
